# Measured values pooled from the literature.
# Parts stem from different laboratories: compare values within a part only. Substitutions count along the parent as printed.

# Set 1 — technique: RNA Bind-n-Seq; molecule type: RNA; medium: in vitro; tested at: 365 nM; relative to: no-protein control; direction: higher = stronger binding
# Target: RNA binding protein fox-1 homolog 2, RRM domain, GST-SBP tag (RBFOX2, Homo sapiens, UniProt O43251-10, residues 100-194)
# Setting: natural RNA segment, single round, ends assumed
# Shared flanks, not repeated: GGGAGUUCUACAGUCCGACGAUC … UGGAAUUCUCGGGUGCCAA
# Target sequence (chain): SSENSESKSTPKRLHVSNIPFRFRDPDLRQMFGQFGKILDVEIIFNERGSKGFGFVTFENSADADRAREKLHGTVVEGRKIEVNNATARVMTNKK
Sequence,RBNS enrichment (R)
UAGCUGCUGCUAAAACAAUGCUAGCCUAAAGAUACAGGAGUCUCUGACAAAAUGACUUUCAUGUUAAGGGGAAAUGCUGUUUAUCUACUCAGACAUGCAUCUGUGAUGUU,0.332
AGGGGAUGACCUGUGGGCGACACAGAAGAGAAGACACCUGCAGGAGGCGACGGUGGCCCCAGGAUGGGGAGCAGGCCUCUGCUGCCUGUUCCCUCUGCCCUUUCUCUGGC,0.392
AAGCUGGGCUACUCCAUGACCAGGGGCAAGAUAGGCUUCUAGACAGCUGCGUCCCGGAAACCAAGGUGGUGGGGACUCCCUGUGCCACCUCAUGCCACCCACUGGCUGGA,0.208
UUCAUGCUUUGGGUCAGGAGGCCAAAGCUGAUGUUCAGGCCCCACCCACUCCCUACAGUCCUCAGACCAAGGAGGGGUUUGGGUAGUAGGCCCGAGCUGCAUUGCCGGCC,0.418
UAGGGCUUUCAUCUUGCCUUGCCCUCCCUUUCUGUCCCAUCUGCAGCCUCACCAGGUGGGCUUGUAGCCUCUAUUAUGCAAAUAUUCGUAGCUCAGCUUUCAGAGCGCUA,0.88
GCCUCUGGGCCCUCCCAGCACACGCAUGGUCUCUUCACCGCUGCCCUCGAGUUCCAUGUCUCUUUCCCCUGCCCCUAGUUGCUGUCUCGGCUGCUCUCCCAUAGUUGGUU,6.41
GUUAUGGGUGGAUCGCAGCUCUUCGCCAUCAAGUGCAUUCAGGAUUAUUCCUGGGAGGUUGCUUAAAGCUGAAAUAGAACUGAAAUGCAGUUGGUAGACUAGCCAAACAU,1.36

# Set 2 — technique: DHFR PCA, deep sequencing; medium: yeast; together with: (+)-ABA 0.0091 µM; relative to: wild-type fitted maximum; direction: higher = stronger binding
# Target: ABI1, truncated, D143A, DHFR fusion (Arabidopsis thaliana)
# Setting: methotrexate growth selection, single substitutions
# Parent: PYL1, truncated, DHFR fusion (Arabidopsis thaliana); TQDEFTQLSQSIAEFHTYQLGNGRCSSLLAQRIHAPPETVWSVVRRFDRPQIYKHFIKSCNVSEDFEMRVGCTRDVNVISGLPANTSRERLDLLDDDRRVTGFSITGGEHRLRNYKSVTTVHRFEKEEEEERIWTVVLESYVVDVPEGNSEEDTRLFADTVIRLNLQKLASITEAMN; partner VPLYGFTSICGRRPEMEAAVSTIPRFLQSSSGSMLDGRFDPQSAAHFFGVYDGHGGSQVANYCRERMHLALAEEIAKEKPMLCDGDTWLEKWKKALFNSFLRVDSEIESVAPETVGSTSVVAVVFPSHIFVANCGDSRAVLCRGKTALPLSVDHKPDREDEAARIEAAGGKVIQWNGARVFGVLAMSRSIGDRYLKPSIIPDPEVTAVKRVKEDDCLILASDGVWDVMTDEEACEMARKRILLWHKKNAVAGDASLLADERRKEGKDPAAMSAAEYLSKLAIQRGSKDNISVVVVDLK
Variant,relative binding score
C72A,63%
D144Y,4.33%
E151G,4.82%
R74S,-2.11%
F47C,2.89%
R90W,-4.65%
G102A,7.49%
F124C,25.6%
S80V,10.9%

# Set 3 — technique: protein-binding microarray; molecule type: double-stranded DNA, one strand shown; medium: in vitro; tested at: 250 nM; setting: 60-bp whole probe; together with: salmon DNA 0.4 mg/ml; relative to: random background probes; direction: higher = stronger binding; shared flanks, not repeated: GCCTAGCAC … GTCTTGATTCGCTTGACGCTGCTG
# Target: Interferon regulatory factor 5, full length, phosphomimetic (IRF5, Homo sapiens, UniProt Q13568-2, residues 1-514, K96S/S451D/S453D/S456D/S462D)
Sequence,log fluorescence [z-score]
GCCCCACCCGCTCTGGCCCCGTGCTAG,-0.78
TTAGGTTTCAGACTGGATTAGTGCTAG,1.03
GACGGACTGGGGTATCAGGACGTGCTA,-0.393
TCAGGTTTCGACACTGGGTTAGTGCTA,5.33
CCGCCGCCTGGCTGGGGGATGTGCTAG,-0.755
GAGGGTTTCCTTTCCCTGACGTGCTAG,0.8
CCCGATATGCGGTAAGGGCGCGTGCTA,0.0874
GACGGTTTCGTGTATCGGGACGTGCTA,4.08

# Single results of other studies
Substance,target,test,test system,conditions,scale,measurement,value
"PhoQ, residues 284 288 289 292 302 303 SMMNNA","PhoP, residues 12 14 15 18 19 DLLYY (Escherichia coli, UniProt P23836)","Sort-seq, refers to: YFP reporter",E. coli,"PhoQ-PhoP variant library, together with: 10 µM Mg2+","relative to: high Mg2+ state, higher = stronger signaling",fold induction,2.19

# A few entries again (set 3):
Sequence,log fluorescence [z-score]
CCCGATATGCGGTAAGGGCGCGTGCTA,0.0874
CCGCCGCCTGGCTGGGGGATGTGCTAG,-0.755
